{"data": "Measurements pooled from the literature", "note": "Every numbered part comes from another study and shows a few of its results, in no order. Substitutions count along the parent as printed."}
{"data": "Block 1", "target": "Centromere-binding protein 1, full length, N-terminal tag (CBF1, Saccharomyces cerevisiae, UniProt P17106, residues 1-351)", "method": "protein-binding microarray", "form": "double-stranded DNA, one strand shown", "sample": "in vitro", "tested at": "0.8 µM", "setting": "whole 60-bp probe, no competitor", "reading": "higher = stronger binding", "shared flanks, not repeated": "… GTCTTGATTCGCTTGACGCTGCTG", "UniProt P17106, sequence (whole entry, looked up)": "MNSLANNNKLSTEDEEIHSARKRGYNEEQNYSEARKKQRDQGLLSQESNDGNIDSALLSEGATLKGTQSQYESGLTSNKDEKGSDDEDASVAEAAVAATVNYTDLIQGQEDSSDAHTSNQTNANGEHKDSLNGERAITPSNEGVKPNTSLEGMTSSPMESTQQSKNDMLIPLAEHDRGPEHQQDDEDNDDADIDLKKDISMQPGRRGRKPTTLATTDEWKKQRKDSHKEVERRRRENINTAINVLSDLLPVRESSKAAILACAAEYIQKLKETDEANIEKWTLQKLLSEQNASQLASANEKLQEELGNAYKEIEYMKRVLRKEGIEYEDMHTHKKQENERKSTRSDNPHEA"}
{"Sequence": "CTACCCTTCCCCTATCAACTGATTGAAGAATGCTTC", "fluorescence intensity": "545 a.u."}
{"Sequence": "GAAAATACGTATCATCATATGATTTCCCCCCTGTAG", "fluorescence intensity": "618 a.u."}
{"Sequence": "TGTACGAAGCTATCAGAAGTCACTATAGTAGTTAGG", "fluorescence intensity": "552 a.u."}
{"Sequence": "CCTAACTACTATATCATCACCACATAGCTTCGTACA", "fluorescence intensity": "531 a.u."}
{"Sequence": "CCTAACTACTATAAGCACATGACATAGCTTCGTACA", "fluorescence intensity": "1750 a.u."}
{"Sequence": "CTAATTATAGAGAGTCACGCTGAACACGCGGCGTTC", "fluorescence intensity": "856 a.u."}
{"Sequence": "GAAACAAAACAATGGCGTGGGGTGATGAAATAATAG", "fluorescence intensity": "551 a.u."}
{"Sequence": "TGTACGAAGCTATTTCACCATATTATAGTAGTTAGG", "fluorescence intensity": "557 a.u."}
{"Sequence": "GAAAGAAGCGTACGTCACGGCAAAACCAGCGACTAG", "fluorescence intensity": "533 a.u."}
{"Sequence": "CTATATTATTGACGTGGTCGCAGAACAGTTCGGTTC", "fluorescence intensity": "528 a.u."}
{"Sequence": "GAAGAAAACGCATATCAACTGATATATATACACTAG", "fluorescence intensity": "556 a.u."}
{"Sequence": "GAAGTTATCAATTATAACGTGAAAGGTTTTGCATAG", "fluorescence intensity": "582 a.u."}
{"Sequence": "CTAGCCATTACCGCCGACATCACTGCTCTTTCTTTC", "fluorescence intensity": "548 a.u."}
{"Sequence": "CTAATTCATGATAGTAAACAGGTGAATTAAGATTTC", "fluorescence intensity": "539 a.u."}
{"Sequence": "GAACATTAAAAGCCGCATGTGGCATCCTGAATTTAG", "fluorescence intensity": "646 a.u."}
{"Sequence": "TGTACGAAGCTATTGGACGTGGTTATAGTAGTTAGG", "fluorescence intensity": "518 a.u."}
{"Sequence": "GAATTACATCGTGATCACGTTTCTTTTTTCGTTTAG", "fluorescence intensity": "7160 a.u."}
{"Sequence": "GAATGCTTTGGCCTACGTGTGCGGTACTCGTTTTAG", "fluorescence intensity": "492 a.u."}
{"Sequence": "CTAAGTGATTTTTATCACGTGACACTTTTTTATTTC", "fluorescence intensity": "33000 a.u."}
{"data": "Block 2", "target": "CCNB3, cyclin fold, Cln2 fusion (human)", "method": "yeast growth competition, sequencing", "sample": "yeast", "setting": "weak parent motif", "baseline": "not given", "reading": "higher = stronger binding", "starting sequence": "DTL docking peptide (human); PSSMRKICTYFHR; partner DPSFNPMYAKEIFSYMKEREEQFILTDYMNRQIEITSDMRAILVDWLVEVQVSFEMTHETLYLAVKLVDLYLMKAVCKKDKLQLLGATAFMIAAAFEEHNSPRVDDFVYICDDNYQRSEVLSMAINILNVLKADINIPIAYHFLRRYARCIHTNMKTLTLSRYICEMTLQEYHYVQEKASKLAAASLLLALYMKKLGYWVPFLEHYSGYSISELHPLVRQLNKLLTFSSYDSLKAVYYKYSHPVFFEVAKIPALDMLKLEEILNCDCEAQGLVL"}
{"Change": "ASSMRKICTYFHR [P1A]", "normalised enrichment score": 0.476}
{"Change": "PSSARKICTYFHR [M4A]", "normalised enrichment score": 0.613}
{"Change": "PSSMRKIATYFHR [C8A]", "normalised enrichment score": -0.133}
{"Change": "PSSMRKACTYFHR [I7A]", "normalised enrichment score": -0.0136}
{"Change": "PSSMRKICTAFHR [Y10A]", "normalised enrichment score": 0.501}
{"Change": "PSSMRKICTYAHR [F11A]", "normalised enrichment score": 0.0892}
{"Change": "PSSMRKICAYFHR [T9A]", "normalised enrichment score": 0.261}
{"data": "Block 3", "target": "RNA binding protein fox-1 homolog 2, RRM domain, GST-SBP tag (RBFOX2, Homo sapiens, UniProt O43251-10, residues 100-194)", "method": "RNA Bind-n-Seq", "form": "RNA", "sample": "in vitro", "tested at": "365 nM", "setting": "natural RNA segment, single round, ends assumed", "baseline": "no-protein control", "reading": "higher = stronger binding", "shared flanks, not repeated": "GGGAGUUCUACAGUCCGACGAUC … UGGAAUUCUCGGGUGCCAA", "Residues (chain)": "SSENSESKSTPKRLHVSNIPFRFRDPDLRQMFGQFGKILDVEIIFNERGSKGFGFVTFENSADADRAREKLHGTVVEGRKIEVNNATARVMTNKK"}
{"Sequence": "UGAAGAGUUUUAGGAAUAAAUACAUUUUAUAGAAUGGAAACCCAGUAUGGUACUGGGGAAGUUUAUUCAUGCUUGCAAUCUUGUUUGGAAAUAAAAUGGGUCCGUCUGGA", "RBNS enrichment (R)": 2.26}
{"Sequence": "GGUUUUUCCUCUUUGCUCCCUCCAAUCUUGAGAUUGGGUUUUGCUUUAGAGUGCAAGUAUCAUAAUUCCGUAUGAUAGAUGGGGCCUGGACACCCAUCUCAACAGGGUCA", "RBNS enrichment (R)": 1.05}
{"Sequence": "GACUUUGUGCCUUAAGUCUACUCAGUGCCUGGUGAAGCCACCCUCAGCCCUUCACAGGCCUGAACCAGUAGGGGCCAGUGGGCCAGGUAAGCCCUAGAGCCUUGAACCAG", "RBNS enrichment (R)": 0.444}
{"Sequence": "AAGGAGCUGUUUGCCCUGAAACCCAUGAACUGCCCAGGACACUGGCUUAUGUUUGAUCAUCGGCCAAGGUCCUGGCGAGAACUGCCUCUGCGGCUAGCUGAUUUUGGGGU", "RBNS enrichment (R)": 0.211}
{"Sequence": "UCCCUUCUCUUGGAAUGUGAAGAUCUGUCGAUUCAUCCUGUCAUUAAUCCUGACAUACAGAACAAAGAAUGCAGUAACAUUAGCCCUGCCAGGUCACGUGUAGGACGUGC", "RBNS enrichment (R)": 0.345}
{"Sequence": "AGCUCGGCCCCACCCAGAGGGCCUGGCCAGCUGCUCCCAAGCCACCCAGGGAGGCAGCAGACAGGUGGGAGCUCCUGGGGCACGGCCGUGGGAUUGCUUCCACCAGUGUG", "RBNS enrichment (R)": 0.241}
{"Sequence": "ACUGCCACUCUAUGAGAAAACCCUCUGCCCUUUACUGCUGCUGGCUUGCCGUCUGGGAUGCUCAGUAGAGUCAAGGGACCCAGCAGAGAUGCAUGAGACAAGAUGGAUUG", "RBNS enrichment (R)": 0.57}
{"Sequence": "CUCCCACCAAGAUCAGCCACCUCAGGCAUGGGGAGUAAUGAGACCAGAGCGCCUCUCUGGCACCACAGCAGGGAUCGUCAGGUAAUAAACACUCUUGAUUCCCUGAGGAA", "RBNS enrichment (R)": 0.34}
{"Sequence": "ACAGGAAAUAACACUUCAGGAGGAACUGAAACUAGCUAAGCCUUCCUUUUUAGCAAGUAAACCUUGAACUUGGUCAGUGUGGAUAUUUCUGCUAGGCUGACGACUAAGCU", "RBNS enrichment (R)": 0.301}
{"Sequence": "AAAGGAGAGAACUGUUAACUAGCAGAAUGCAUUUUAUAGAGCUCUGGCUAACCGCCUCUUAGCCCACGGUUACCCAGUCAUUUGUCUCAGUUAACAUUUAAAGGAGUUUU", "RBNS enrichment (R)": 1.05}
{"Sequence": "AAAGUGUUCUGAGCCCAGUUCCUUGCCCCUCAAAACCCACAUCUGCUGUGACUUCUUAUCCAGGCCCCCAACUUAUGUCCUUAGGGUCAUCUUGGAGAACCACAAUGGAU", "RBNS enrichment (R)": 0.252}
{"Sequence": "UGCCUGUACCUCCGUUGUAUCUAGGAAGUAACUAACUAGCCUUUGAUUUUACAGGCUCAUAGGUGGAAGGGACUUGCCUUGUUUCAGAUGAGACUUUGGAGUAUGGACUU", "RBNS enrichment (R)": 0.663}
{"data": "Block 4", "target": "TAR DNA-binding protein 43, full length, His tag (TARDBP, Homo sapiens, UniProt Q13148, residues 1-414)", "method": "RNA Bind-n-Seq", "form": "RNA", "sample": "in vitro", "tested at": "20 nM", "setting": "6-mer, flanks averaged, single round", "added": "150 mM LiCl", "baseline": "input library", "reading": "higher = stronger binding"}
{"Sequence": "UCGUCU", "6-mer enrichment (R)": 0.937}
{"Sequence": "UCGUUU", "6-mer enrichment (R)": 1.02}
{"Sequence": "AGAGAA", "6-mer enrichment (R)": 0.964}
{"Sequence": "CGUUUA", "6-mer enrichment (R)": 0.977}
{"Sequence": "AAUAGA", "6-mer enrichment (R)": 0.863}
{"Sequence": "UCAAAA", "6-mer enrichment (R)": 0.831}
{"Sequence": "GCACUG", "6-mer enrichment (R)": 0.909}
{"Sequence": "UUCUAG", "6-mer enrichment (R)": 0.876}
{"Sequence": "CACGCU", "6-mer enrichment (R)": 0.875}
{"Sequence": "UCUUCA", "6-mer enrichment (R)": 0.86}
{"Sequence": "CGAGCA", "6-mer enrichment (R)": 0.875}
{"Sequence": "AUGGAC", "6-mer enrichment (R)": 0.956}
{"Sequence": "UACCAC", "6-mer enrichment (R)": 0.893}
{"data": "Block 5", "target": "Interferon regulatory factor 7, full length, phosphomimetic (IRF7, Homo sapiens, UniProt Q92985, residues 1-503, S101K/S471D/S472D/S475D/S476D/S477D/S483D/S484D/S487D)", "method": "protein-binding microarray", "form": "double-stranded DNA, one strand shown", "sample": "in vitro", "tested at": "250 nM", "setting": "60-bp whole probe", "added": "salmon DNA 0.4 mg/ml", "baseline": "random background probes", "reading": "higher = stronger binding", "shared flanks, not repeated": "GCCTAGCAC … GTCTTGATTCGCTTGACGCTGCTG", "UniProt Q92985, sequence (whole entry, unmodified, looked up)": "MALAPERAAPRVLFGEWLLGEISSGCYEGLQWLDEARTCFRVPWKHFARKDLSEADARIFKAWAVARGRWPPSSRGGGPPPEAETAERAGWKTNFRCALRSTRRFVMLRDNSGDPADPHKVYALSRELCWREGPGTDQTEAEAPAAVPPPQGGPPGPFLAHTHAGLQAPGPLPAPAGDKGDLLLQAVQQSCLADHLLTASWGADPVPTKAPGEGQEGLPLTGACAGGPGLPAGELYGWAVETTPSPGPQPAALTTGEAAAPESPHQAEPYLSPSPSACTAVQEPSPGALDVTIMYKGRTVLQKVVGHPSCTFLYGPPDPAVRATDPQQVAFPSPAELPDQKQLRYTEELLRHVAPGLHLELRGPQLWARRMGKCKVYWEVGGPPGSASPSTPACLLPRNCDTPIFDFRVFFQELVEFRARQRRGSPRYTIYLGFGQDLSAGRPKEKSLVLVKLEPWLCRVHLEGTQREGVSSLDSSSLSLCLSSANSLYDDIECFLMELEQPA"}
{"Sequence": "AACGGTTTCGACTATCGGGACGTGCTA", "log fluorescence [z-score]": 6.46}
{"Sequence": "GAGGATATCGGGTATCGAGACGTGCTA", "log fluorescence [z-score]": -0.542}
{"Sequence": "GGCCCTATAGGTTTCTATATGTGCTAG", "log fluorescence [z-score]": 1.81}
{"Sequence": "TTAGGTTTCCTACTGCTTAAGTGCTAG", "log fluorescence [z-score]": 1.22}
{"Sequence": "TCAAGTCCCGAGAATGGTACTGTGCTA", "log fluorescence [z-score]": 0.0784}
{"Sequence": "TAGTTTTTACTTTCTGAATGGTGCTAG", "log fluorescence [z-score]": 2.33}
{"Sequence": "GGCTGTTTGGTTCTTATCCTGTGCTAG", "log fluorescence [z-score]": -0.579}
{"Sequence": "TTAGAACTAAGACTGGATTAGTGCTAG", "log fluorescence [z-score]": 0.103}
{"Sequence": "TTAGGACTGGGGTATCGGGTAGTGCTA", "log fluorescence [z-score]": -0.168}
{"Sequence": "GAGACTCTAATATTGAGACTGTGCTAG", "log fluorescence [z-score]": 0.162}
{"Sequence": "GACGGTATCCTTTTCCTGTCGTGCTAG", "log fluorescence [z-score]": 1.47}
{"Sequence": "GTAGATATCAGTTTCGATTAGTGCTAG", "log fluorescence [z-score]": 8.25}
{"Sequence": "GACGTTCTCAGACTGGAGACGTGCTAG", "log fluorescence [z-score]": 0.178}
{"Sequence": "TCACCTTTATATACCTGACTGTGCTAG", "log fluorescence [z-score]": 0.705}
{"Sequence": "CAGGAATGGCACCAGCAGGGGTGCTAG", "log fluorescence [z-score]": -0.716}
{"Sequence": "TTGGGTCTCCTTATCCTTTAGTGCTAG", "log fluorescence [z-score]": 0.146}
{"Sequence": "TTAGATATCAGTCTCGACTAGTGCTAG", "log fluorescence [z-score]": 0.352}
{"Sequence": "CCAGTGCTGCTTTGTCAAGAGTGCTAG", "log fluorescence [z-score]": -0.457}
{"note": "For quick reference, copied from above (block 4):"}
{"Sequence": "CGUUUA", "6-mer enrichment (R)": 0.977}
{"Sequence": "AAUAGA", "6-mer enrichment (R)": 0.863}
{"Sequence": "UCAAAA", "6-mer enrichment (R)": 0.831}
{"Sequence": "GCACUG", "6-mer enrichment (R)": 0.909}
{"Sequence": "UUCUAG", "6-mer enrichment (R)": 0.876}
{"Sequence": "CACGCU", "6-mer enrichment (R)": 0.875}
